Experimental data pooled from the literature.
Compare with care: the assays were run in different laboratories. ± marks the error that the study gave. Where no end group is shown, it is not given here. [ ]: non-standard residue; d: D form.

Under mRNA level, `NC(=O)c1ccc(-c2nc(-c3ccc4c(c3)OCO4)c(-c3ccccn3)[nH]2)cc1` is recorded as “increased” (iPSC-derived intestinal progenitor cells; refers to: ISX; concentration not given; reference: DMSO).
For `CN(CCOc1ccc(CC2SC(=O)NC2=O)cc1)c1ccccn1` (racemic), osteoblast differentiation read “decreased” (primary bone marrow MSCs; refers to: CFU-OB and osteoblast markers; 1 µM).
`CN(C)C/C=C(/c1ccc(Br)cc1)c1cccnc1` — result for active force: “decreased” (hiPSC-derived 3D engineered cardiac tissue; contractility; serum-free medium; concentration not given, 15 min, paced at 1 Hz; reference: time-matched vehicle).
With `C#C[C@@]1(O)[C@@H](CO)O[C@@H](n2cc(Br)c3c(N)ncnc32)[C@@H]1O` the GI50 was 0.022 µM (U-251; cell growth or viability, SRB; 48 h).
With `CSTSCR` the adherent cells was 39% (B16-F10; peptide; 2 µg coated per well, 30 to 60 min; reference: thrombospondin-coated wells).
`Nc1ccc(-c2ccc3ncc4ccc(=O)n(-c5cccc(C(F)(F)F)c5)c4c3c2)cn1` has a therapeutic window of 2.22 (NIH3T3 in HEY/NIH microtissues; fibroblast toxicity; chronic toxicity, unit not given; reference: AC50 ATP over AC50 NanoLUC, day 7).
For `PACAP-27`, “time to return to baseline” read ~2 min (NCI-H838; Fura-2 fluorescence, refers to: cytosolic Ca2+; 100 nM).
`amyloid-β42 oligomers` — result for ApoE secretion: “inhibited” (U-251; ELISA; concentration not given, 24 h).
For `RERMS`, growth-promoting activity read “active” (A-1 fibroblasts; cell number increase; peptide; concentration not given, 3 d, 10% FCS; reference: basal increase).
`VVI[dF] (D-Phe4)` has a cell viability of 70% (PC-12; protection from Aβ1–42 toxicity, MTT; concentration not given, 6 h, Aβ to peptide ratio 1:1, together with: Aβ1–42 2 µM; reference: untreated cells).
The specific binding of `[68Ga+3].[Cl-].[Cl-].[Cl-]` is reported as 18.8 ± 2.5% (BT-474; radioligand cell binding; concentration not given, 2 h, pH 7.0, 37 °C).
The therapeutic window of `O=C(Nc1ccc([N+](=O)[O-])cc1Cl)c1cc(Cl)ccc1O` is reported as 1.4 (NIH3T3 in SKOV/NIH microtissues; fibroblast toxicity; 168 h, chronic toxicity, unit not given; reference: AC50 ATP over AC50 NanoLUC, day 7).
For `C[C@@H]1C[C@H]2[C@@H]3CCC4=CC(=O)C=C[C@]4(C)[C@@]3(F)[C@@H](O)C[C@]2(C)[C@@]1(O)C(=O)CO`, mRNA level read “increased” (iPSC-derived intestinal progenitor cells; refers to: villin 1; concentration not given; reference: DMSO).
With `V[dL]IA (D-Leu2)` the cell viability was 71.5% (PC-12; protection from Aβ1–42 toxicity, MTT; concentration not given, 6 h, Aβ to peptide ratio 1:1, together with: Aβ1–42 2 µM; reference: untreated cells).
Under active force, `CCOc1ccccc1OCCN[C@H](C)Cc1ccc(OC)c(S(N)(=O)=O)c1` is recorded as “decreased” (hiPSC-derived 3D engineered cardiac tissue; contractility; serum-free medium; concentration not given, 15 min, paced at 1 Hz; reference: time-matched vehicle).
With `COC(=O)[C@]12CCC(C)(C)C[C@H]1[C@H]1C(=O)C=C3[C@@]4(C)C=C(C#N)C(=O)C(C)(C)[C@@H]4CC[C@@]3(C)[C@]1(C)CC2` the therapeutic window was 0.12 (NIH3T3 in HEY/NIH microtissues; fibroblast toxicity; 168 h, chronic toxicity, unit not given; reference: AC50 ATP over AC50 NanoLUC, day 7).
With `N#Cc1ccc(-c2csc(NN=Cc3c(F)cc(F)cc3F)n2)cc1` the inhibition was 5 to 50% (HCT-116; colony formation; 5 µM, 24 h).
`[Aib]VIA (Aib = CC(C)(N)C(=O)O)` has a cell viability of 72.7% (PC-12; protection from Aβ1–42 toxicity, MTT; concentration not given, 6 h, Aβ to peptide ratio 1:5, together with: Aβ1–42 2 µM; reference: untreated cells).
With `CCN1C(=O)/C(=C\c2ccc(OC)c(OC)c2)S/C1=N/N=C(\C)c1ccccn1` the inhibition was 62.5% (HEp-2; cell growth or viability, SRB; 100 µg/mL, 48 h).
`CCN(CC)CCNC(=O)c1c(C)[nH]c(/C=C2\C(=O)Nc3ccc(F)cc32)c1C` has a therapeutic window of 0.023 (NIH3T3 in HEY/NIH microtissues; fibroblast toxicity; 168 h, chronic toxicity, unit not given; reference: AC50 ATP over AC50 NanoLUC, day 7).
The cell viability of `VV[dA]A (D-Ala3)` is reported as 73.3% (PC-12; protection from Aβ1–42 toxicity, MTT; concentration not given, 6 h, Aβ to peptide ratio 1:10, together with: Aβ1–42 2 µM; reference: untreated cells).
`COc1cc2ncnc(Nc3ccc(F)c(Cl)c3)c2cc1OCCCN1CCOCC1` gave an EC20 of 50.5 µM (cytochrome c release, ELISA; BALB/cByJ female mouse liver mitochondria; 30 min; reference: alamethicin maximal release).
`Cn1c(-c2ccc(C(N)=O)cc2F)nnc1C(C)(C)Oc1c(F)cc(Cl)cc1F` has a Cmax mean of 673 ng/mL (young Japanese subjects, plasma; oral, 50 mg single dose, day 1).
The GSH level of `O=C(/C=C/c1ccc(O)cc1)c1ccc(O)cc1O` is reported as 2.5 fold (H4IIE; 160 µM, 24 h; reference: DMSO).
`COc1ccc(CC2COc3cc(OC)c(OC)c(OC)c3C2=O)cc1O` (stereo not drawn) gave a GI50 of > 100 µM (92-1 uveal melanoma cells; alamarBlue; 48 h).
For `C[C@]12CC[C@@H]3c4ccc(O)cc4CC[C@H]3[C@@H]1CC[C@@]2(O)C=Cc1cc(C(F)(F)F)ccc1C(F)(F)F`, “relative stimulatory activity” read 29.7% (Ishikawa; alkaline phosphatase induction, agonist; concentration not given, 3 d; reference: estradiol).
The EC20 of `CCN(CC)CC#CCOC(=O)C(O)(c1ccccc1)C1CCCCC1` (stereo not drawn) is reported as 303 µM (mitochondrial swelling; BALB/cByJ female mouse liver mitochondria; 30 min, together with: succinate + rotenone; reference: CaCl2 maximal swelling).
`CCN1C(=O)/C(=C\c2ccc(Cl)cc2)S/C1=N/N=C(\C)c1ccccn1` gave an inhibition of 67.2% (HEp-2; cell growth or viability, SRB; 100 µg/mL, 48 h).
For `VV[dI]A (D-Ile3)`, the cell viability was 70% (PC-12; protection from Aβ1–42 toxicity, MTT; concentration not given, 6 h, Aβ to peptide ratio 1:1, together with: Aβ1–42 2 µM; reference: untreated cells).
`CC[C@@]1(O)C(=O)OCc2c1cc1n(c2=O)Cc2cc3c(CN(C)C)c(O)ccc3nc2-1` gave a therapeutic window of 2.96 (NIH3T3 in HEY/NIH microtissues; fibroblast toxicity; 168 h, chronic toxicity, unit not given; reference: AC50 ATP over AC50 NanoLUC, day 7).
`Oc1cc(O)c2cc(O)c(-c3cc(O)c(O)c(O)c3)[o+]c2c1` gave a VEGF-A165b/VEGF-A165a ratio of 2.96 (human podocytes; RT-PCR or Western blot, refers to: VEGF-A165b and VEGF-A165a; normal glucose; 10 µg/mL, 48 h).
`CCC(C)n1ncn(-c2ccc(N3CCN(c4ccc(OCC5COC(Cn6cncn6)(c6ccc(Cl)cc6Cl)O5)cc4)CC3)cc2)c1=O` (stereo not drawn): active force “decreased” (hiPSC-derived 3D engineered cardiac tissue; contractility; serum-free medium; concentration not given, 15 min, paced at 1 Hz; reference: time-matched vehicle).
For `VV[dL]A (D-Leu3)`, the cell viability was 70.6% (PC-12; protection from Aβ1–42 toxicity, MTT; concentration not given, 6 h, Aβ to peptide ratio 1:5, together with: Aβ1–42 2 µM; reference: untreated cells).
`COc1cc(N2CCC(N3CCN(C)CC3)CC2)ccc1Nc1ncc(Cl)c(Nc2ccccc2S(=O)(=O)C(C)C)n1` gave a therapeutic window of 32 (NIH3T3 in HEY/NIH microtissues; fibroblast toxicity; 168 h, chronic toxicity, unit not given; reference: AC50 ATP over AC50 NanoLUC, day 7).
`COc1ccc2c3c(c4cc(OC)c(OC)cc4c2c1)C[C@H]1CCCN1C3` — result for “Cdt1 and CDC6 levels”: “increased” (CL1-5; RT-PCR, Western blot, refers to: Cdt1, CDC6; 0.01 µg/mL, 24 and 48 h).
Under “GRPR mRNA level”, `CC(=O)O[C@@]12CO[C@@H]1C[C@H](O)[C@@]1(C)C(=O)[C@H](O)C3=C(C)[C@@H](OC(=O)[C@H](O)[C@@H](NC(=O)OC(C)(C)C)c4ccccc4)C[C@@](O)([C@@H](OC(=O)c4ccccc4)[C@H]21)C3(C)C` is recorded as 99.5 ± 2.95% (T47D; RT-qPCR; IC50 concentration, 72 h plus 24 h recovery; reference: untreated).
With `V[dA]IA (D-Ala2)` the cell viability was 70% (PC-12; protection from Aβ1–42 toxicity, MTT; concentration not given, 6 h, Aβ to peptide ratio 1:10, together with: Aβ1–42 2 µM; reference: untreated cells).
`Transferrin`: “cleaved caspase-3 level” “no effect” (INS-832/13 rat insulinoma cells; apoptosis, refers to: cleaved caspase-3/actin; 400 nM, 48 h, together with: adenoviral prepro-hIAPP-GFP overexpression).
`COc1cc2c(Nc3ccc(Br)cc3F)ncnc2cc1OCC1CCN(C)CC1` — result for activity call: “inactive” (human iPSC-derived cardiomyocytes; calcium transient decay-rise ratio; up to 100 µM, population median of 5 donors).

For quick reference, copied from above:
With `CCN1C(=O)/C(=C\c2ccc(OC)c(OC)c2)S/C1=N/N=C(\C)c1ccccn1` the inhibition was 62.5% (HEp-2; cell growth or viability, SRB; 100 µg/mL, 48 h).
For `C[C@@H]1C[C@H]2[C@@H]3CCC4=CC(=O)C=C[C@]4(C)[C@@]3(F)[C@@H](O)C[C@]2(C)[C@@]1(O)C(=O)CO`, mRNA level read “increased” (iPSC-derived intestinal progenitor cells; refers to: villin 1; concentration not given; reference: DMSO).
The specific binding of `[68Ga+3].[Cl-].[Cl-].[Cl-]` is reported as 18.8 ± 2.5% (BT-474; radioligand cell binding; concentration not given, 2 h, pH 7.0, 37 °C).
With `N#Cc1ccc(-c2csc(NN=Cc3c(F)cc(F)cc3F)n2)cc1` the inhibition was 5 to 50% (HCT-116; colony formation; 5 µM, 24 h).
